Published values from different studies.
Numbered parts are unrelated; each lists some results of a single study.
Chain of UniProt P51812 (whole entry, looked up): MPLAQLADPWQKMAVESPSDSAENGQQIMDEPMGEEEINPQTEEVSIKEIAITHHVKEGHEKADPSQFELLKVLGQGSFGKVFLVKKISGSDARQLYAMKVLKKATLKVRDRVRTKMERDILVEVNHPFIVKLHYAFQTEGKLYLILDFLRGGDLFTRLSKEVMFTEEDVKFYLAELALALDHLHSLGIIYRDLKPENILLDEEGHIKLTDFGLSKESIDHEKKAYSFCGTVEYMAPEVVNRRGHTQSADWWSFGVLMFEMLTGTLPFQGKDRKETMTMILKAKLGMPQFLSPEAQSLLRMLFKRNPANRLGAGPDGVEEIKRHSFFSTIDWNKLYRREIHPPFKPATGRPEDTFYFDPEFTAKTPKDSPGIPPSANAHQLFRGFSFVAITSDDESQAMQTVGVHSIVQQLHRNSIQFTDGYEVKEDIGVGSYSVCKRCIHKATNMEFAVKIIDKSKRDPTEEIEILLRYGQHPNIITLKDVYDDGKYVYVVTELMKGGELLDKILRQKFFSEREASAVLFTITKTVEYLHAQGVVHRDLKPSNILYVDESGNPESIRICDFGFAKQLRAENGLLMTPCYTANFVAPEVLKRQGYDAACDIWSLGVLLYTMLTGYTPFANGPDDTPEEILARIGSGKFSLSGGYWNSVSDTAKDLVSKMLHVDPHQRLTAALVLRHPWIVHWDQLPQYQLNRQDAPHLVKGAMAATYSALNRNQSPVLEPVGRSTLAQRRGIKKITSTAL
Chain of UniProt Q9H2X6 (whole entry, looked up): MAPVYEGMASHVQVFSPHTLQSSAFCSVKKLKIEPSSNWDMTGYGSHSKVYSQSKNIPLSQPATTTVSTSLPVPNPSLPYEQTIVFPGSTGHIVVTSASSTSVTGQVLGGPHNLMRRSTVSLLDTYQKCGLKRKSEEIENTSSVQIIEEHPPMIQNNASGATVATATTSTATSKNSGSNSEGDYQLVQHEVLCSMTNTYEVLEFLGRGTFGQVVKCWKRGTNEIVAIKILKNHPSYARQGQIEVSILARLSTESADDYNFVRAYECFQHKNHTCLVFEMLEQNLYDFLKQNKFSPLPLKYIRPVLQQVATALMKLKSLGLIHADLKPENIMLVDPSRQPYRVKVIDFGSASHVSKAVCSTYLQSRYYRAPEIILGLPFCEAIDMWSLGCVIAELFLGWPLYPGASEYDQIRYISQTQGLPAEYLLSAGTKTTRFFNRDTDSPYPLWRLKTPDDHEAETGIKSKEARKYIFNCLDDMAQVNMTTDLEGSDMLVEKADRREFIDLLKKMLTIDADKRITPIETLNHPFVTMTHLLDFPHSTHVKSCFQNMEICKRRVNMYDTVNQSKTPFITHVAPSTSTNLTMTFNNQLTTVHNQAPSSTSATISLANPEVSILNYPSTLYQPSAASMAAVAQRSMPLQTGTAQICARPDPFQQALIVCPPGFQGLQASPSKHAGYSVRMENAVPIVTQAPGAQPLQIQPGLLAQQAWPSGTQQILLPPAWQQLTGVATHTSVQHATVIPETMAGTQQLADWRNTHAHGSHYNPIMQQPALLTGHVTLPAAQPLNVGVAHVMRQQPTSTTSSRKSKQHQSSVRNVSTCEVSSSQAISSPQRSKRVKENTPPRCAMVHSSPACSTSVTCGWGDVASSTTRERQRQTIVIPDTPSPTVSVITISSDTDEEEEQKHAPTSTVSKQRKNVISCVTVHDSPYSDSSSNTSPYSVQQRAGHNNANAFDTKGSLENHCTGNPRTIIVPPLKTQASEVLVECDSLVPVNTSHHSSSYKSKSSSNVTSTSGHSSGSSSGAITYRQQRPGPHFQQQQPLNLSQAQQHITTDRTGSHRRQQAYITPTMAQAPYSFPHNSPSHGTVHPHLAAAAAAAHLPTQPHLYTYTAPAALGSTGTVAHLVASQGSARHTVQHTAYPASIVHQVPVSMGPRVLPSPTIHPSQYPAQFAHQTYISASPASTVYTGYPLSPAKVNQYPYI
Chain of UniProt Q07002 (whole entry, looked up): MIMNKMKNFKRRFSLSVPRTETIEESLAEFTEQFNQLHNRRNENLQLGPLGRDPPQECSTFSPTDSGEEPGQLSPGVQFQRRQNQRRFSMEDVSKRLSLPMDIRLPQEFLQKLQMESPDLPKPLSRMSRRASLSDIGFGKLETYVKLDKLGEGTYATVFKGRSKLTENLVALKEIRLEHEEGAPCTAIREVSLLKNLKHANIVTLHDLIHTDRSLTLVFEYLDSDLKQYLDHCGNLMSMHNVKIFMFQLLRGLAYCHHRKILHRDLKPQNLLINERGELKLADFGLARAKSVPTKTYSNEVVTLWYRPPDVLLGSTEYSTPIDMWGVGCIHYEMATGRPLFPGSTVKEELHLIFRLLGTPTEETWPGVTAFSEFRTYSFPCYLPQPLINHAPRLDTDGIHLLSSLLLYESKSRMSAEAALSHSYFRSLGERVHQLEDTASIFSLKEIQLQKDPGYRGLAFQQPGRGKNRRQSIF
Chain of UniProt O75385 (whole entry, looked up): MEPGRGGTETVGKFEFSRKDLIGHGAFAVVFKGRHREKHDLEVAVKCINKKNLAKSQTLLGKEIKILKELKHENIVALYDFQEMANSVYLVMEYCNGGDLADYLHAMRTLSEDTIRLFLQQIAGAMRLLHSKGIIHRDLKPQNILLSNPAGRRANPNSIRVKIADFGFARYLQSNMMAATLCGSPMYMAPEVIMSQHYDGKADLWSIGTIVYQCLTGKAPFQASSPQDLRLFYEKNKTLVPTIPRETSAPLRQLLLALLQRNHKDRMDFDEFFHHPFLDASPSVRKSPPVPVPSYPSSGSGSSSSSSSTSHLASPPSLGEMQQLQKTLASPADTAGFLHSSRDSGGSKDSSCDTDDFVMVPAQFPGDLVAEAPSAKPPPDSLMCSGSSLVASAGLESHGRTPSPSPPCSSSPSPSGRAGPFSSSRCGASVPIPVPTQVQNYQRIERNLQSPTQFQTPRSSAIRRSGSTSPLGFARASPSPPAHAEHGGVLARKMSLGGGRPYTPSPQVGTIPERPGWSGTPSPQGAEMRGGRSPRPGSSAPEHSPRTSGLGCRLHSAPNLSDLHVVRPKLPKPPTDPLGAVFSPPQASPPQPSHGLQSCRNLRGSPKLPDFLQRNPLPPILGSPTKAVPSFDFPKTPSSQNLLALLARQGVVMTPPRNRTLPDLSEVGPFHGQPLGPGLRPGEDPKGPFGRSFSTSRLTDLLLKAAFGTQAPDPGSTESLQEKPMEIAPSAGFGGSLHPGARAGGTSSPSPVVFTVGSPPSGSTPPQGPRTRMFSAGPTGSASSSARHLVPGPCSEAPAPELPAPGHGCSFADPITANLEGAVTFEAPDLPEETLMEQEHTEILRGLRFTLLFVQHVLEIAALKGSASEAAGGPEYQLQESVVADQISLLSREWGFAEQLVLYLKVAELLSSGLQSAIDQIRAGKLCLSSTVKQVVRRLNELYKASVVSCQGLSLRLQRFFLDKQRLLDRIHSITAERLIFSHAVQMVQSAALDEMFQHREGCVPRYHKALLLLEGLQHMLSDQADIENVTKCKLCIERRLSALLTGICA
Chain of UniProt Q9P1W9 (whole entry, looked up): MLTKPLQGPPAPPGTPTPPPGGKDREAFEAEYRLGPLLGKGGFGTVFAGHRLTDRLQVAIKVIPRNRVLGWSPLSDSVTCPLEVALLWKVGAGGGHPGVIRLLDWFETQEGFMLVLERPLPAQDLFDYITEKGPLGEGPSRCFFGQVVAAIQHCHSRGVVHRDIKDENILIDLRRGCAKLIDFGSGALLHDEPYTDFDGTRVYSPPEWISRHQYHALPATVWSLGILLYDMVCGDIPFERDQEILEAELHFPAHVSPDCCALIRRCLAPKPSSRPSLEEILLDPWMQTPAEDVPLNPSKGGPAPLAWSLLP
Chain of UniProt O43781 (whole entry, looked up): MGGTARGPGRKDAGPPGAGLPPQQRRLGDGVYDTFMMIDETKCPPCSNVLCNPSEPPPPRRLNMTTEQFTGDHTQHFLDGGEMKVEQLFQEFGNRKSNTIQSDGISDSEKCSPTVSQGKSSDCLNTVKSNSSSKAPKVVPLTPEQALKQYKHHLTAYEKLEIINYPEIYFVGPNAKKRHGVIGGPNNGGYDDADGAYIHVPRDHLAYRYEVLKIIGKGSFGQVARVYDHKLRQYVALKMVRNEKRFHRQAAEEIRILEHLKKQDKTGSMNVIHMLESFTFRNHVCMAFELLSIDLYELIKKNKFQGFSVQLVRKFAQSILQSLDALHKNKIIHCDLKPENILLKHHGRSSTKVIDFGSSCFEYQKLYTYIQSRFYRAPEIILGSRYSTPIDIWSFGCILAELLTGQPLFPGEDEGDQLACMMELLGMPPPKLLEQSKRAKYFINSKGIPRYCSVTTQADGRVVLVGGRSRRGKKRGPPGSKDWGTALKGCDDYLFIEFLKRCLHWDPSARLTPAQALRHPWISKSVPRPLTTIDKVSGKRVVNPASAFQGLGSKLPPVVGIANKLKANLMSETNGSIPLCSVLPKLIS
Chain of UniProt P06241 (whole entry, looked up): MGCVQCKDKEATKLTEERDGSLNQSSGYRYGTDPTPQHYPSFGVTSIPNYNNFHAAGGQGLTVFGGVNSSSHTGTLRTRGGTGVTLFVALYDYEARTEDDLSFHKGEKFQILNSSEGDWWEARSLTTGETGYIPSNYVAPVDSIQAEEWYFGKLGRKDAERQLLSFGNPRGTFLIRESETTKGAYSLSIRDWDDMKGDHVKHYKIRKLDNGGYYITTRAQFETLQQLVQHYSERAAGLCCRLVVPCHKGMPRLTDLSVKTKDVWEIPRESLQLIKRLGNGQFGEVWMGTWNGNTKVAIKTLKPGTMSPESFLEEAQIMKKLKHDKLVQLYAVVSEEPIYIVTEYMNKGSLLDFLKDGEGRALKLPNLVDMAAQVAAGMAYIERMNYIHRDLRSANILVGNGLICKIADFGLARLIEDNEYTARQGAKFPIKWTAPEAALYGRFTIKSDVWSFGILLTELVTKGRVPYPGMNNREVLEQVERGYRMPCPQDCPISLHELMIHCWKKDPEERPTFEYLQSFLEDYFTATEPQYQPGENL

Study 1 — read-out: enzyme activity; mode: inhibitor; tested at: 0.5 µM; baseline: control; quantity: remaining activity
SMILES: CN(C)S(=O)(=O)c1ccc2c(c1)/C(=C/c1cc3c([nH]1)CCCC3)C(=O)N2
Homeodomain-interacting protein kinase 2 (HIPK2, Homo sapiens, UniProt Q9H2X6): 98.2%
Cyclin-dependent kinase 1, with cyclin B (CDK1, Homo sapiens, UniProt P06493): 75.4%
Ribosomal protein S6 kinase alpha-5 (RPS6KA5, Homo sapiens, UniProt O75582): 106%
Mitogen-activated protein kinase kinase kinase kinase 4 (MAP4K4, Homo sapiens, UniProt O95819): 46.1%
Ephrin type-B receptor 1 (EPHB1, Homo sapiens, UniProt P54762): 82.8%
Serine/threonine-protein kinase WNK3 (WNK3, Homo sapiens, UniProt Q9BYP7): 96.5%
Homeodomain-interacting protein kinase 4 (HIPK4, Homo sapiens, UniProt Q8NE63): 98.8%
Ephrin type-A receptor 4 (EPHA4, Homo sapiens, UniProt P54764): 91.3%
Tyrosine-protein kinase Blk (BLK, Homo sapiens, UniProt P51451): 13.9%
Tyrosine-protein kinase Srms (SRMS, Homo sapiens, UniProt Q9H3Y6): 104%
Tyrosine-protein kinase ABL1 (ABL1, Homo sapiens, UniProt P00519): 57.3%
Dual specificity tyrosine-phosphorylation-regulated kinase 3 (DYRK3, Homo sapiens, UniProt O43781): 99.1%

Study 2 — tested at: 0.1 µM; quantity: remaining binding
Compound: Cc1c[nH]c2nccc(Oc3c(F)cc(Nc4cc(Cl)nc(N)n4)cc3F)c12
Serine/threonine-protein kinase pim-2 (PIM2, Homo sapiens, UniProt Q9P1W9); cell-free assay, competition with immobilised ligand: 100%
Cyclin-dependent kinase 11B (CDK11B, Homo sapiens, UniProt P21127); cell-free assay, competition with immobilised ligand: 80%
Calcium/calmodulin-dependent protein kinase type 1B (PNCK, Homo sapiens, UniProt Q6P2M8); cell-free assay, competition with immobilised ligand: 94%
Serine/threonine-protein kinase Nek2 (NEK2, Homo sapiens, UniProt P51955); cell-free assay, competition with immobilised ligand: 97%
Tyrosine-protein kinase Fyn (FYN, Homo sapiens, UniProt P06241); cell-free assay, competition with immobilised ligand: 100%
Serine/threonine-protein kinase VRK2 (VRK2, Homo sapiens, UniProt Q86Y07); cell-free assay, competition with immobilised ligand: 76%
Activated CDC42 kinase 1 (TNK2, Homo sapiens, UniProt Q07912); cell-free assay, competition with immobilised ligand: 95%
Serine/threonine-protein kinase TAO2 (TAOK2, Homo sapiens, UniProt Q9UL54); cell-free assay, competition with immobilised ligand: 100%
Serine/threonine-protein kinase MRCK gamma (CDC42BPG, Homo sapiens, UniProt Q6DT37); competition binding: 68%
Non-receptor tyrosine-protein kinase TYK2, JH1 (TYK2, Homo sapiens, UniProt P29597); cell-free assay, competition with immobilised ligand: 78%
Serine/threonine-protein kinase Sgk1 (SGK1, Homo sapiens, UniProt O00141); cell-free assay, competition with immobilised ligand: 74%
Serine/threonine-protein kinase Nek3 (NEK3, Homo sapiens, UniProt P51956); cell-free assay, competition with immobilised ligand: 75%
Cyclin-dependent kinase 18 (CDK18, Homo sapiens, UniProt Q07002); cell-free assay, competition with immobilised ligand: 100%
MAP kinase-activated protein kinase 5 (MAPKAPK5, Homo sapiens, UniProt Q8IW41); cell-free assay, competition with immobilised ligand: 81%
Serine/threonine-protein kinase ULK1 (ULK1, Homo sapiens, UniProt O75385); cell-free assay, competition with immobilised ligand: 92%
Myosin light chain kinase, smooth muscle (MYLK, Homo sapiens, UniProt Q15746); cell-free assay, competition with immobilised ligand: 80%
Ephrin type-B receptor 2 (EPHB2, Homo sapiens, UniProt P29323); cell-free assay, competition with immobilised ligand: 99%
Membrane-associated tyrosine- and threonine-specific cdc2-inhibitory kinase (PKMYT1, Homo sapiens, UniProt Q99640); cell-free assay, competition with immobilised ligand: 98%
Mitogen-activated protein kinase kinase kinase kinase 1 (MAP4K1, Homo sapiens, UniProt Q92918); cell-free assay, competition with immobilised ligand: 73%
Myosin-IIIa (MYO3A, Homo sapiens, UniProt Q8NEV4); cell-free assay, competition with immobilised ligand: 95%
Receptor-type tyrosine-protein kinase FLT3 (FLT3, Homo sapiens, UniProt P36888, N841I); cell-free assay, competition with immobilised ligand: 76%
Ribosomal protein S6 kinase alpha-3, N-terminal kinase domain (RPS6KA3, Homo sapiens, UniProt P51812); cell-free assay, competition with immobilised ligand: 79%

Study 3 — host: human; sample: microsomes or S9; tested at: 2 µM; time: 0.5 h; quantity: remaining compound
CCCC1(c2ccccc2)OC(=O)C(C)=C1c1ccccc1 (stereo not drawn): 91.4%
CC(=O)c1cnc2c(C)c(-c3ccc(C)cc3)nn2c1C: 1.16%
Cc1nn(CC(=O)O)c2nccc(-c3cnn(C)c3)c12: 89.5%
CN/C(=N/c1cc(C)nn1-c1ccccc1)c1cccs1: 24.6%
Cc1cccc(OCC(O)Cn2nc(C)c3c(C)onc3c2=O)c1 (stereo not drawn): 47%
O=C(Nc1ccc(Cc2nnn[nH]2)cc1)C1CCN(c2ccc(Cl)cn2)CC1: 93.1%
Cc1ccn(S(=O)(=O)c2cc(C)c(C)cc2Br)n1: 7.39%
CCCn1nccc1-c1csc(S(=O)(=O)NC(C)(C)CC)c1: 0.116%
CCOC1CC(Nc2cncc(-c3nncn3C)c2)C12CCCC2 (stereo not drawn): 93%
CN(C)S(=O)(=O)c1ccc(Br)c2ccccc12: 7.63%

Study 4 — quantity: patients with adverse event
Compound: CC(C)n1cnc(-c2ccc(F)cc2)c1-c1ncc(C(=O)Nc2ccc(N3CCN(C)CC3)cc2)[nH]1
Phase 2a trial, measured: haemorrhoids; human, idiopathic pulmonary fibrosis; 60 mg once daily, grade 4: 0%
measured: AST increase; patients with idiopathic pulmonary fibrosis; 30 mg twice daily, trial, with: standard of care therapy: 0%
Phase 2a trial, measured: hypoalbuminaemia; human, idiopathic pulmonary fibrosis; all compound arms total, grade 5: 0%
Phase 2a trial, measured: haemorrhoids; human, idiopathic pulmonary fibrosis; all compound arms, grade 3: 0%
Phase 2a trial, measured: hyperuricaemia; human, idiopathic pulmonary fibrosis; all compound arms total, grade 2: 0%
Phase 2a trial, measured: hypokalaemia; human, idiopathic pulmonary fibrosis; 30 mg once daily, grade 5: 0%
Phase 2a trial, measured: eosinophilia myalgia syndrome; human, idiopathic pulmonary fibrosis; all compound arms, grade 4: 0%

Excerpt of the above (study 1):
Dual specificity tyrosine-phosphorylation-regulated kinase 3 (DYRK3, Homo sapiens, UniProt O43781): 99.1%
Homeodomain-interacting protein kinase 2 (HIPK2, Homo sapiens, UniProt Q9H2X6): 98.2%
Homeodomain-interacting protein kinase 4 (HIPK4, Homo sapiens, UniProt Q8NE63): 98.8%
Mitogen-activated protein kinase kinase kinase kinase 4 (MAP4K4, Homo sapiens, UniProt O95819): 46.1%
Tyrosine-protein kinase Srms (SRMS, Homo sapiens, UniProt Q9H3Y6): 104%
Tyrosine-protein kinase ABL1 (ABL1, Homo sapiens, UniProt P00519): 57.3%
Ephrin type-A receptor 4 (EPHA4, Homo sapiens, UniProt P54764): 91.3%
Ephrin type-B receptor 1 (EPHB1, Homo sapiens, UniProt P54762): 82.8%
